# Published values from different studies.
# Numbered parts are unrelated; each lists some results of a single study. Substitutions count along the parent as printed.

# Set 1
# Target: UBE2G2 UBC core domain (UniProt P60604)
# Technique: yeast two-hybrid
# Sample: yeast
# Setting: mostly zero background
# Reference: not given
# Direction: higher = stronger interaction
# B1: ARK2C RING domain (UniProt Q6ZSG1); chain EGEESDTDEKCTICLSMLEDGEDVRRLPCMHLFHQLCVDQWLAMSKKCPICRVDIETQLGAD
# B2: ZNF598 RING domain (UniProt Q86UK7); chain AAAPERGGGSCVLCCGDLEATALGRCDHPVCYRCSTKMRVLCEQRYCAVCREELRQVVFGK
# B3: RC3H2 RING domain (UniProt Q9HBD1); chain QAAQWTEFLSCPICYNEFDENVHKPISLGCSHTVCKTCLNKLHRKACPFDQTAINTDIDVL
# B4: MID1 RING domain (UniProt O15344); chain METLESELTCPICLELFEDPLLLPCAHSLCFNCAHRILVSHCATNESVESITAFQCPTCRHVITLSQRGL
# B5: CUL9 RING domain (UniProt Q8IWT3); chain AQAVPVRPDHCPVCVSPLGCDDDLPSLCCMHYCCKSCWNEYLTTRIEQNLVLNCTCPIADCPAQPTGAFIR
# B6: RNF25 RING domain (UniProt Q96BH1); chain LTDNNIPHGQCVICLYGFQEKEAFTKTPCYHYFHCHCLARYIQHMEQELKAQGQEQEQERQHATTKQKAVGVQCPVCREPLVYDLASL
# B7: TRIM63 RING domain (UniProt Q969Q1); chain PMENLEKQLICPICLEMFTKPVVILPCQHNLCRKCANDIFQAANPYWTSRGSSVSMSGGRFRCPTCRHEVIMDRHGV
# B8: TRIM8 RING domain (UniProt Q9BZR9); chain WKNCFEEELICPICLHVFVEPVQLPCKHNFCRGCIGEAWAKDSGLVRCPECNQAYNQKPGLE
# Residues (chain): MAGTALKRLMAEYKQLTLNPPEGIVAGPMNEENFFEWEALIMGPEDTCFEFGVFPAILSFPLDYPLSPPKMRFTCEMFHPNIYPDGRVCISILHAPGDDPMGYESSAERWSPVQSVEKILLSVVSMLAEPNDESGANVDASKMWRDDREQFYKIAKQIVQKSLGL
Molecule,lacZ reporter activity
B1 (ARK2C RING domain),11000
EDEVSDNSAECVVCLSDVRDTLILPCRHLCLCNTCADTLRYQANNCPICRLPFRALLQIR (RNF157 RING domain (UniProt Q96PX1)),16200
QHHELTSLFECPVCFDYVLPPILQCQAGHLVCNQCRQKLSCCPTCRGALTPSIRNL (SIAH2 RING domain (UniProt O43255)),0
B2 (ZNF598 RING domain),0
B3 (RC3H2 RING domain),0
KTLSRFGIQPCSICLGDAKDPVCLPCDHVHCLRCLRAWFASEQMICPYCLTALPDEFSPA (RNF213 RING domain (UniProt Q63HN8)),0
RLTMMWEEVTCPICLDPFVEPVSIECGHSFCQECISQVGKGGGSVCPVCRQRFLLKNLRP (TRIM21 RING domain (UniProt P19474)),0
B4 (MID1 RING domain),0
B5 (CUL9 RING domain),0
FPEHFVKSISCQICEHILADPVETNCKHVFCRVCILRCLKVMGSYCPSCRYPCFPTDLES (RAG1 RING domain (UniProt P15918)),0
B6 (RNF25 RING domain),0
QLRRLQEERTCKVCMDKEVSIVFIPCGHLVVCKDCAPSLRKCPICRSTIKGTVRTF (BIRC3 RING domain (UniProt Q13489)),16200
B7 (TRIM63 RING domain),0
B8 (TRIM8 RING domain),0
QLRRLQEERTCKVCMDKEVSVVFIPCGHLVVCQECAPSLRKCPICRGIIKGTVRTF (BIRC2 RING domain (UniProt Q13490)),9460
FASPPDSNFVCSVCHGVLKRPARLPCSHIFCKKCILRWLARQKTCPCCRKEVKRKKVVH (RNF151 RING domain (UniProt Q2KHN1)),0

# Set 2
# Target: CCNB2, cyclin fold, Cln2 fusion (human)
# Technique: yeast growth competition, sequencing
# Sample: yeast
# Setting: weak parent motif
# Reference: not given
# Direction: higher = stronger binding
# Parent: RB1 docking peptide (human); PKPLKKLRFDIEG; partner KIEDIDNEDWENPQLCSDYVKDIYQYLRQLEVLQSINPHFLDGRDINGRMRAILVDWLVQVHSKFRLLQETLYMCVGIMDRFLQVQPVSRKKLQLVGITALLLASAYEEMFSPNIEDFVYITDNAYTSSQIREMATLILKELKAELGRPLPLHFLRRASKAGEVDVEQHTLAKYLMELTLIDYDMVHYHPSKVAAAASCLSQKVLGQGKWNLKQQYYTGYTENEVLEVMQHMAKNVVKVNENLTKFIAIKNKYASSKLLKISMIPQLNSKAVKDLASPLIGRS
Substitution,normalised enrichment score
PKPLKKLRFDWEG [I11W],0.257
LKPLKKLRFDIEG [P1L],-0.0791
PKPLKKLIFDIEG [R8I],0.157
PKPLRKLRLDIEG [K5R F9L],-0.108
PKPLKKLVFDIEG [R8V],0.782
YKPLKKLRFDIEG [P1Y],0.318
PKPLKSLRFDIEG [K6S],0.211
PKPLKKLRFSIEG [D10S],-0.321
PKLLKKLRFDIEG [P3L],0.603
PKPLKKVRFDIEG [L7V],0.268
PKPLKKLRMDIEG [F9M],0.366
PKPLKKLRFDIET [G13T],-0.184
PKPLKKCRFDIEG [L7C],0.427
PKRLKKLRFDIEG [P3R],0.667
PKPLKKLRFDIKG [E12K],-0.164
PKWLKKLRFDIEG [P3W],0.243
PKNLKKLRFDIEG [P3N],0.14
PKPLKKLRDDIEG [F9D],0.248
PKPLKKLRPDIEG [F9P],-0.0317
PKPLRKLRFDIEG [K5R],0.0779
PDPLKKLRFDIEG [K2D],-0.3
PKPLKKQRFDIEG [L7Q],-0.143
PKPLKKLRWDIEG [F9W],0.298
PKPLKKLRFHIEG [D10H],0.629
PKPLKKLRFDFEG [I11F],0.326

# Set 3
# Target: Histone acetyltransferase KAT6A, winged helix 2, GST fusion (KAT6A, Homo sapiens, UniProt Q92794, residues 85-181)
# Technique: protein binding microarray
# Molecule type: double-stranded DNA, one strand shown
# Sample: in vitro
# Concentration: not given
# Setting: 8-mer, flanks averaged, mean of 2 arrays, mostly near background
# Reference: not given
# Direction: higher = stronger binding
# Residues (chain): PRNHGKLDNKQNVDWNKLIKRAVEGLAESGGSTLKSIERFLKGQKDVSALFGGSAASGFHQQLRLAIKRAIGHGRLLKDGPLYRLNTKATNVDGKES
Sequence,E-score
ATAGACAT,-0.0141
GGTATCAA,-0.139
CGGTATTA,0.113
GATAAAGC,-0.0898
AGATTGGA,-0.024
TGTTATAA,0.089
CATTAGGA,-0.101
TACGAACA,0.183
ACGTGCAA,-0.176
CTCCCAAC,0.0246
CTGATAAC,-0.00381
AGGCACGC,0.0935
TTGATAAA,0.284
AGTGAACG,-0.0296
AAAAAAGT,0.0526
CTTGCAGA,0.147
ACCGTGCG,0.229
ATTGACAG,0.0181
TAGGAACA,-0.236
ACTGTTAC,-0.172
GGCGAGCA,0.0393
CTCTGCGA,0.07
GAGGTAAA,0.0997

# Set 4
# Target: ABI1, truncated, D143A, DHFR fusion (Arabidopsis thaliana)
# Technique: DHFR PCA, deep sequencing
# Sample: yeast
# Setting: methotrexate growth selection, single substitutions
# Together with: (+)-ABA 0.39 µM
# Reference: wild-type fitted maximum
# Direction: higher = stronger binding
# Parent: PYL1, truncated, DHFR fusion (Arabidopsis thaliana); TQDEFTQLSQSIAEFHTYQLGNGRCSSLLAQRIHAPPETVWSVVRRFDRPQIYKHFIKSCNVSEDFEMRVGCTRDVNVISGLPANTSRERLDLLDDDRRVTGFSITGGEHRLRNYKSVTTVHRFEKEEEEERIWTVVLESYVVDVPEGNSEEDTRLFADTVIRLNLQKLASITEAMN
Substitution,relative binding score
R88L,24.6%
D144G,1.94%
V62T,17.3%
G102C,-8.36%
W41C,3.76%
T101V,45.3%
N165D,18.4%
L93S,-3.83%
R132I,27.1%
A170P,1.69%
R88T,56%
I172Q,-5.58%
R24E,22.6%
N77W,21.9%
Q10K,54.5%
R49E,30.8%
N77P,-16.2%
N22Q,57%
I79M,18.7%
F157K,-3.36%
D97L,11.2%
S59M,3.92%
H16A,-8.89%
I57S,-2.16%
D75I,60.5%

# Set 5
# Target: Sal-like protein 4, full length isoform B (SALL4, Homo sapiens, UniProt Q9UJQ4-2, residues 1-616)
# Technique: universal PBM
# Molecule type: double-stranded DNA, one strand shown
# Sample: in vitro
# Concentration: not given
# Setting: 8-mer, flanks averaged, mean of replicates
# Direction: higher = stronger binding
# Target sequence (chain): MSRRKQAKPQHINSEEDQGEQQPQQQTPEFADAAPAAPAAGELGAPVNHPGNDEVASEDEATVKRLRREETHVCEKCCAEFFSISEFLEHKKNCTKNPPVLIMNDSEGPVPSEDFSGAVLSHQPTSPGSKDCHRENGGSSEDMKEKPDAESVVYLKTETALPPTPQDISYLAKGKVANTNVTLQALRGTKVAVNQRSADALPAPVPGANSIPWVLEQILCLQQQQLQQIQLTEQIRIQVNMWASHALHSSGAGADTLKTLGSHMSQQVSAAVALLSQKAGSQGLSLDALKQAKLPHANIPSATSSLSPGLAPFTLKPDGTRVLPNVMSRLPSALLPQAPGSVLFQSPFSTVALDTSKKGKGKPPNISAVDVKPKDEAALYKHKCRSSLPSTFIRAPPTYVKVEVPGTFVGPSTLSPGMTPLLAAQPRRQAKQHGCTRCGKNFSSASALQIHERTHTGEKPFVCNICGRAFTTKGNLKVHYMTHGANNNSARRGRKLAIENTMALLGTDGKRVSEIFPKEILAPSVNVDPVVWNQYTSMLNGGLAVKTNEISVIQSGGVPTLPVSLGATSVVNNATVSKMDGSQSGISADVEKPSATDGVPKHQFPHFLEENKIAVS
Sequence,E-score
CGAGTCCC,-0.136
GCCTGGAC,-0.205
ATTGTCAA,0.165
GATAATAC,0.232
GGTCTTCA,-0.116
AAATGGCT,0.107
CACTGTCC,-0.0612
AGCCGTTC,-0.331
GCTATCCC,-0.0811
GACTTGAC,-0.0521
CGCATCTA,0.00091
AAAAGACA,0.204
AGCGTACT,-0.135
AATTACCA,0.271
ATAGTATG,0.291
CCGATAAA,0.171
ATGATGTC,0.0652
GAAAAGCC,-0.188
CGGATAAC,-0.122

# Set 6
# Target: Ras GTPase-activating protein-binding protein 1, RRM domain (G3BP1, Homo sapiens, UniProt Q13283)
# Chain of UniProt Q13283 (whole entry, looked up): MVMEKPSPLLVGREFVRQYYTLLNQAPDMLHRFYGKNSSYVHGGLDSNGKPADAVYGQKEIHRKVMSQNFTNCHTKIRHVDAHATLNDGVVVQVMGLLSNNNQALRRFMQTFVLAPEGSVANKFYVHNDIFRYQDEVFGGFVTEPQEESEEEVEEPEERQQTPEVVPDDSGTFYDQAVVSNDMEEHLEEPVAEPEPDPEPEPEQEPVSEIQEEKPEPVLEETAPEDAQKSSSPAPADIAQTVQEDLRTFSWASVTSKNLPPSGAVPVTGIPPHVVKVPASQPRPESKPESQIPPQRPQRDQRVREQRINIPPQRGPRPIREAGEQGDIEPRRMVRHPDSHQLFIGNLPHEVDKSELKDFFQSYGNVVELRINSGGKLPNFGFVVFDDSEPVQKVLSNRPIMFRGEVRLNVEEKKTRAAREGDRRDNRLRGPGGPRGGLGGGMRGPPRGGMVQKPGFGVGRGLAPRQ
# Technique: RNA Bind-n-Seq
# Molecule type: RNA
# Sample: in vitro
# Concentration: 1 µM
# Setting: whole 134-nt RNA, ends assumed
# Together with: 150 mM KCl
# Reference: input library
# Direction: higher = stronger binding
# Constant ends, left off below: GGGAGUUCUACAGUCCGACGAUC … UGGAAUUCUCGGGUGUCAAGG
Sequence,log2 enrichment
UAACUUUAGAGGAGGAUCUGAUGGAGAUGGCAGUGGACGUGGAUUUGGGGAUGGCUAUAAUGGGUAUGGAGGAGGACCUGGAGGUGGCAA,-0.408
AGUCCUGUGCUACACAUCGUAUGUACCGAAUCGGAAAGGUUUUUUUGGUUUUUUUGGAAAGUAUUAUGUUACGCCGUUCGGAUCUGCACU,-0.489
CAAGUCCUGUGCUACACAUCGUAUGUACCGAAUCGGGGAAGGGGAAGGGAAGGGGAAAGUAUUAUGUUACGCCGUUCGGAUCUGCACUUC,1.09
CCUGUGCUACACAUCGUAUGUACCGAAUCGGGGAAAGGGGAAAAAGGGGAAAAAAAGGGGAAAGUAUUAUGUUACGCCGUUCGGAUCUGC,0.422
GCAGGAAGUAAAAACAAAUGGAAAUGCAAAGGAUAGUGGCAGGGGUGGGGGUUGCUAAGGAAAGGGUGGGAUGGGAGUGGGUAAAGAGUU,0.753
UAACUUUAGAGGAGGAUCUGAUGGAUAUGGCAGUAGACGUGGAUUUGGGGAUGGCUAUAAUGGGUAUGGAGGAGGACCUGGAGGUGGCAA,-0.922
UGCUGUGCAGCGGCAUCGGCCCACUGUGGUGGAAUGUCUACGGGAAACUGAUGCCUCCCUCAGCCGGUGAGCAGUGAUAGAGGGGACAGG,-0.566
UGGCCCUGGUGGGAUGCGGGGAGGAAGAGGUGGCCUCAUGGAUCGUGGUGGUCCCGGUGGAAUGUUCAGAGGUGGCCGUGGUGGAGACAG,0.882
ACCAUGCAGGUGGGCAUCUUUGGGAAGUGGGGCACGGGGGGGAUAGGGAGGGGGGUAACACUUUGGGAACAGGUGGUCCCAGGUCGUUUC,-0.491
CUCAAGUCCUGUGCUACACAUCGUAUGUACCGAAUCGGGUUGGGUUGGGUUGGAAAGUAUUAUGUUACGCCGUUCGGAUCUGCACUUCCA,-0.182
UCCUGUGCUACACAUCGUAUGUACCGAAUCGGGAAAAAGGGAAAAAGGGAAAAAAAGGGAAAGUAUUAUGUUACGCCGUUCGGAUCUGCA,0.177
GUCCUGUGCUACACAUCGUAUGUACCGAAUCGGGGCCCCCGGCCCCCGGGGCCCCCGGGAAAGUAUUAUGUUACGCCGUUCGGAUCUGCA,-0.808
UCAAGUCCUGUGCUACACAUCGUAUGUACCGAAUCGGGAAAGGGAGGGUUUGGGAAAGUAUUAUGUUACGCCGUUCGGAUCUGCACUUCC,0.687
GCAGGAAGUAAAAACAAAUGGAAAUGCUUCGGAUAGUGGCAGGGGUGGGGGUUGCCAAGGAAAGGGUGGGAUGGGAGUGGGUAAAGAGUU,1.5

# A few entries again (set 4):
Substitution,relative binding score
D97L,11.2%
R132I,27.1%
R24E,22.6%
S59M,3.92%
R88T,56%
I57S,-2.16%
T101V,45.3%
N77W,21.9%
L93S,-3.83%
W41C,3.76%
A170P,1.69%
